Measured values collected from several papers.
A part holds a random share of what one study measured.
Sequence of UniProt Q9NY57 (whole entry, looked up): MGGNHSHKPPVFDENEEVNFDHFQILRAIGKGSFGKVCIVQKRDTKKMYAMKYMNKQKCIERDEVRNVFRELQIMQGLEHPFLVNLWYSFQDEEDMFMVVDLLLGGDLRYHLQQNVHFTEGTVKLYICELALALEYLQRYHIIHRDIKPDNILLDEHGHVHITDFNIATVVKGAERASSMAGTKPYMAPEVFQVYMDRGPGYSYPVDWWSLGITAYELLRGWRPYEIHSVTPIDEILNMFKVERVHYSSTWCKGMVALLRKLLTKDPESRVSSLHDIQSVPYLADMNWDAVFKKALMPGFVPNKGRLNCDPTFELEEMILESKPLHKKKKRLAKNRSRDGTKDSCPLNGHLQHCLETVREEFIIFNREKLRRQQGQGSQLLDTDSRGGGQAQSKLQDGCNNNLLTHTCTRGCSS
Sequence of UniProt P36897 (whole entry, looked up): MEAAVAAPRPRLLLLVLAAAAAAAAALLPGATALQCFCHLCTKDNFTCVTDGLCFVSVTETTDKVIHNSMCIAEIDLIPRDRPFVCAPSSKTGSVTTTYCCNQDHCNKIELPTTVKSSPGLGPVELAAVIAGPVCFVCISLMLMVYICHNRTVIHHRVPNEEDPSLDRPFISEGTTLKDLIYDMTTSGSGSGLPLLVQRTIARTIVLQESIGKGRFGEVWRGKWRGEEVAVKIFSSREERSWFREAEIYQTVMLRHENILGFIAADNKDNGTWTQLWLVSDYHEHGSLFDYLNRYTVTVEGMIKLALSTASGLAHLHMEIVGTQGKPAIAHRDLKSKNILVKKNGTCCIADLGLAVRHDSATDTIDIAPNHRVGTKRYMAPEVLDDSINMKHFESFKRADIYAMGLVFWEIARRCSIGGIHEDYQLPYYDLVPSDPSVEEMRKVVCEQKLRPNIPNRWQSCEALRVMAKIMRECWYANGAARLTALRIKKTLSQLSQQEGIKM
Sequence of UniProt Q13237 (whole entry, looked up): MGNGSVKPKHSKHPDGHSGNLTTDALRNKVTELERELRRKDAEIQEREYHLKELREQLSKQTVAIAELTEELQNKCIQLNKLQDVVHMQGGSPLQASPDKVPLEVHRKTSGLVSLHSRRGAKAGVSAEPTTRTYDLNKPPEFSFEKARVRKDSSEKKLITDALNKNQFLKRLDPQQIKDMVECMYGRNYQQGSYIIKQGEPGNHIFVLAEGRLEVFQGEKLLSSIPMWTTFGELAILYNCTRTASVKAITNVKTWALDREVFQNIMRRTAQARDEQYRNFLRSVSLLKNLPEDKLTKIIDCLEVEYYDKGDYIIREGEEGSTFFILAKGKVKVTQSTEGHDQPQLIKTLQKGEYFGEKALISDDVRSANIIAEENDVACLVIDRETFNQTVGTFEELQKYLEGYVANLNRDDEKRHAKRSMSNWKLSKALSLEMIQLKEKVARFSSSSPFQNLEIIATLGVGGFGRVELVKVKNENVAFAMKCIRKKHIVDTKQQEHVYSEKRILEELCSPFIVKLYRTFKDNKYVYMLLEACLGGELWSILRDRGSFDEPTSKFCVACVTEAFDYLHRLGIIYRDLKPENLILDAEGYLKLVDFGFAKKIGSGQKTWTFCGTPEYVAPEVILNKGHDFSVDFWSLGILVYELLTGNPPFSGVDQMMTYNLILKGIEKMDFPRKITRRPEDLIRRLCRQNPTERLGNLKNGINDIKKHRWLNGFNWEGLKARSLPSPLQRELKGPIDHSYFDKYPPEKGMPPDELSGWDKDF
Sequence of UniProt Q15835 (whole entry, looked up): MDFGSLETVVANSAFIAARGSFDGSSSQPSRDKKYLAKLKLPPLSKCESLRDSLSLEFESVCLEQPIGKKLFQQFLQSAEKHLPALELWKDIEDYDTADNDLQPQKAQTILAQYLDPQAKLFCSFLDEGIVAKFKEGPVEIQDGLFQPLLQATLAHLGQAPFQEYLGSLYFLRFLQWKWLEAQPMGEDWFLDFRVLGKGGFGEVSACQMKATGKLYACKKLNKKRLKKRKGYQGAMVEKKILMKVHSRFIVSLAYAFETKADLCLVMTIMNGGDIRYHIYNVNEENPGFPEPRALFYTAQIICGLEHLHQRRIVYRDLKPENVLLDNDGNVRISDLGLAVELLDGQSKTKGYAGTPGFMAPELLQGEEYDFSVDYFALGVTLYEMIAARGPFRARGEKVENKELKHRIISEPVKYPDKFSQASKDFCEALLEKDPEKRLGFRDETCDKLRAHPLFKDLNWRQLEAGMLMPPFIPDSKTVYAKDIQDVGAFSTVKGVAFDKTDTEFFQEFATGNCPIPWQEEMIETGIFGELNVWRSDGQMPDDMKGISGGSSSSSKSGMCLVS

Series 1
SMILES: COc1ccc2[nH]c3c4[nH]c5ccc(OC)cc5c4c4c(c3c2c1)C(=O)NC4=O
Tested at: 1 µM
Measurement: remaining binding
MAPK12 (Homo sapiens, UniProt P53778); binding, competition with immobilised ligand: 70%
MYLK (Homo sapiens, UniProt Q15746); binding: 6.9%
PRKG2 (Homo sapiens, UniProt Q13237); binding: 0.9%
CAMK2G (Homo sapiens, UniProt Q13555); binding: 80%
CIT (Homo sapiens, UniProt O14578); binding, competition with immobilised ligand: 35%
DDR2 (Homo sapiens, UniProt Q16832); binding, competition with immobilised ligand: 72%
FLT1 (Homo sapiens, UniProt P17948); binding, competition with immobilised ligand: 79%
EGFR (Homo sapiens, UniProt P00533, G719C); binding: 64%
TNIK (Homo sapiens, UniProt Q9UKE5); binding, competition with immobilised ligand: 3%
TAOK2 (Homo sapiens, UniProt Q9UL54); binding, competition with immobilised ligand: 96%
ABL1 (Homo sapiens, UniProt P00519, F317L): 75%

Series 2
SMILES: Cc1c(NC(=O)c2cc(C(N)=O)nc3cc(F)ccc23)c(C(F)(F)F)nn1Cc1ccc(C(C)(C)C)cc1
Tested at: 1 µM
Measurement: remaining binding
Tyrosine-protein kinase ABL1, phosphorylated (ABL1, Homo sapiens, UniProt P00519, H396P); cell-free assay, competition with immobilised ligand: 100%
PIP5K1C (Homo sapiens, UniProt O60331); cell-free assay, competition with immobilised ligand: 78%
ULK1 (Homo sapiens, UniProt O75385); cell-free assay, competition with immobilised ligand: 98%
FRK (Homo sapiens, UniProt P42685); cell-free assay, competition with immobilised ligand: 90%
CAMK1G (Homo sapiens, UniProt Q96NX5); cell-free assay, competition with immobilised ligand: 100%
ULK2 (Homo sapiens, UniProt Q8IYT8); cell-free assay, competition with immobilised ligand: 100%
CDKL3 (Homo sapiens, UniProt Q8IVW4); cell-free assay, competition with immobilised ligand: 87%
STK32B (Homo sapiens, UniProt Q9NY57); cell-free assay, competition with immobilised ligand: 100%
MAPK1 (Homo sapiens, UniProt P28482); cell-free assay, competition with immobilised ligand: 71%
TGFBR1 (Homo sapiens, UniProt P36897); cell-free assay, competition with immobilised ligand: 91%
eIF-2-alpha kinase GCN2, C-terminal kinase domain (EIF2AK4, Homo sapiens, UniProt Q9P2K8, S808G); cell-free assay, competition with immobilised ligand: 56%
GRK1 (Homo sapiens, UniProt Q15835); cell-free assay, competition with immobilised ligand: 83%
TLK2 (Homo sapiens, UniProt Q86UE8); cell-free assay, competition with immobilised ligand: 100%
CDC42BPG (Homo sapiens, UniProt Q6DT37); competition binding: 91%
KIT (Homo sapiens, UniProt P10721, V559D); cell-free assay, competition with immobilised ligand: 95%
MUSK (Homo sapiens, UniProt O15146); cell-free assay, competition with immobilised ligand: 97%
COQ8A (Homo sapiens, UniProt Q8NI60); cell-free assay, competition with immobilised ligand: 85%

Series 3
Target: Serine/threonine-protein kinase STK11 (STK11, Homo sapiens, UniProt Q15831)
Observed: enzyme activity
Mode: inhibitor
Tested at: 0.5 µM
Relative to: control
Measurement: remaining activity
Construct (Q15831 1-433): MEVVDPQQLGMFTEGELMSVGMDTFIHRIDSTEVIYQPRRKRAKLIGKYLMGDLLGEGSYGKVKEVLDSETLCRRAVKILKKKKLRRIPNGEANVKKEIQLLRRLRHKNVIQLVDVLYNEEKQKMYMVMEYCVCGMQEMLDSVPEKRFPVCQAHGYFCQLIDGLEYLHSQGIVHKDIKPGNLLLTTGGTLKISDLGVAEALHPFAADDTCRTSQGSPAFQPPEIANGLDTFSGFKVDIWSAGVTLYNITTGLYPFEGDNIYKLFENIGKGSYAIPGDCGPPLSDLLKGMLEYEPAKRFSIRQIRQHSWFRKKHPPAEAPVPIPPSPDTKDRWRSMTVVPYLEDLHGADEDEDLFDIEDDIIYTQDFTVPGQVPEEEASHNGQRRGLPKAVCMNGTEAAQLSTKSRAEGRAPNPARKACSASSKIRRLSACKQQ
CCN(CC)C(=O)c1ccc(Nc2nc(OCC3CCCCC3)c3[nH]cnc3n2)cc1: 85.2%
Ic1cccc(CSc2nnc(-c3ccncc3)o2)c1: 103%
O=C(NC(NC(=S)Nc1ccc(F)c([N+](=O)[O-])c1)C(Cl)(Cl)Cl)C(c1ccccc1)c1ccccc1 (stereo not drawn): 94.2%
CCN(CC)CCNC(=O)c1c(C)[nH]c(/C=C2\C(=O)Nc3ccc(F)cc32)c1C: 97.2%
CN([C@@H](Cc1ccc(OS(=O)(=O)c2cccc3cnccc23)cc1)C(=O)N1CCN(c2ccccc2)CC1)S(=O)(=O)c1cccc2cnccc12: 99%
O=C1C(Cl)=C(N2C(=O)CCC2=O)C(=O)c2ccccc21: 99.8%
COc1cc2ncnc(Nc3ccc(O)c(Br)c3)c2cc1OC: 103%
CCOc1nc(NC(=O)Cc2cc(OC)ccc2OC)cc(N)c1C#N: 96.4%
Cc1cc2ncc(-c3ccccc3)nc2cc1C: 94%
C[C@@H]1CCN(C(=O)CC#N)C[C@@H]1N(C)c1ncnc2[nH]ccc12: 104%
CCN(CC)CCNC(=O)c1c(C)[nH]c(/C=C2\C(=O)Nc3ccc(Cl)cc32)c1C: 80.7%
CN(C)C[C@H]1CCn2c(c(C3=C(c4cn(C)c5ccccc45)C(=O)NC3=O)c3ccccc32)C1: 91.9%
COc1cc2c(cc1OC)-c1[nH]nc(Nc3cccc(F)c3)c1C2: 104%
O=C(Nc1cccc(Nc2nccc(Nc3cccc(C(F)(F)F)c3)n2)c1)C1CC1: 82.8%
c1ccc(-c2[nH]ncc2-c2ccnc3ccccc23)nc1: 82.6%
Cc1nc2cc3nc(-c4cccs4)cnc3cc2n1C: 89.6%
N#Cc1c(NC(=O)c2cccc3ccccc23)sc2c1CCCC2: 96.1%
O=C1c2ccccc2-c2n[nH]c3cccc1c23: 53.9%
O=c1cc(-c2cccc3c2Sc2ccccc2S3)oc(N2CCOCC2)c1: 96.5%
Cn1nc2c3c(cccc31)C(=O)c1ccccc1-2: 87.7%
Cc1cn(-c2cc(NC(=O)c3ccc(C)c(Nc4nccc(-c5cccnc5)n4)c3)cc(C(F)(F)F)c2)cn1: 109%
Nc1cccc(-c2cc3c(Oc4cccc(O)c4)ncnc3[nH]2)c1: 12.4%

Series 4
Target: DNA polymerase theta, ATPase domain (POLQ, Homo sapiens, UniProt O75417)
Sequence of UniProt O75417 (whole entry, unmodified, looked up): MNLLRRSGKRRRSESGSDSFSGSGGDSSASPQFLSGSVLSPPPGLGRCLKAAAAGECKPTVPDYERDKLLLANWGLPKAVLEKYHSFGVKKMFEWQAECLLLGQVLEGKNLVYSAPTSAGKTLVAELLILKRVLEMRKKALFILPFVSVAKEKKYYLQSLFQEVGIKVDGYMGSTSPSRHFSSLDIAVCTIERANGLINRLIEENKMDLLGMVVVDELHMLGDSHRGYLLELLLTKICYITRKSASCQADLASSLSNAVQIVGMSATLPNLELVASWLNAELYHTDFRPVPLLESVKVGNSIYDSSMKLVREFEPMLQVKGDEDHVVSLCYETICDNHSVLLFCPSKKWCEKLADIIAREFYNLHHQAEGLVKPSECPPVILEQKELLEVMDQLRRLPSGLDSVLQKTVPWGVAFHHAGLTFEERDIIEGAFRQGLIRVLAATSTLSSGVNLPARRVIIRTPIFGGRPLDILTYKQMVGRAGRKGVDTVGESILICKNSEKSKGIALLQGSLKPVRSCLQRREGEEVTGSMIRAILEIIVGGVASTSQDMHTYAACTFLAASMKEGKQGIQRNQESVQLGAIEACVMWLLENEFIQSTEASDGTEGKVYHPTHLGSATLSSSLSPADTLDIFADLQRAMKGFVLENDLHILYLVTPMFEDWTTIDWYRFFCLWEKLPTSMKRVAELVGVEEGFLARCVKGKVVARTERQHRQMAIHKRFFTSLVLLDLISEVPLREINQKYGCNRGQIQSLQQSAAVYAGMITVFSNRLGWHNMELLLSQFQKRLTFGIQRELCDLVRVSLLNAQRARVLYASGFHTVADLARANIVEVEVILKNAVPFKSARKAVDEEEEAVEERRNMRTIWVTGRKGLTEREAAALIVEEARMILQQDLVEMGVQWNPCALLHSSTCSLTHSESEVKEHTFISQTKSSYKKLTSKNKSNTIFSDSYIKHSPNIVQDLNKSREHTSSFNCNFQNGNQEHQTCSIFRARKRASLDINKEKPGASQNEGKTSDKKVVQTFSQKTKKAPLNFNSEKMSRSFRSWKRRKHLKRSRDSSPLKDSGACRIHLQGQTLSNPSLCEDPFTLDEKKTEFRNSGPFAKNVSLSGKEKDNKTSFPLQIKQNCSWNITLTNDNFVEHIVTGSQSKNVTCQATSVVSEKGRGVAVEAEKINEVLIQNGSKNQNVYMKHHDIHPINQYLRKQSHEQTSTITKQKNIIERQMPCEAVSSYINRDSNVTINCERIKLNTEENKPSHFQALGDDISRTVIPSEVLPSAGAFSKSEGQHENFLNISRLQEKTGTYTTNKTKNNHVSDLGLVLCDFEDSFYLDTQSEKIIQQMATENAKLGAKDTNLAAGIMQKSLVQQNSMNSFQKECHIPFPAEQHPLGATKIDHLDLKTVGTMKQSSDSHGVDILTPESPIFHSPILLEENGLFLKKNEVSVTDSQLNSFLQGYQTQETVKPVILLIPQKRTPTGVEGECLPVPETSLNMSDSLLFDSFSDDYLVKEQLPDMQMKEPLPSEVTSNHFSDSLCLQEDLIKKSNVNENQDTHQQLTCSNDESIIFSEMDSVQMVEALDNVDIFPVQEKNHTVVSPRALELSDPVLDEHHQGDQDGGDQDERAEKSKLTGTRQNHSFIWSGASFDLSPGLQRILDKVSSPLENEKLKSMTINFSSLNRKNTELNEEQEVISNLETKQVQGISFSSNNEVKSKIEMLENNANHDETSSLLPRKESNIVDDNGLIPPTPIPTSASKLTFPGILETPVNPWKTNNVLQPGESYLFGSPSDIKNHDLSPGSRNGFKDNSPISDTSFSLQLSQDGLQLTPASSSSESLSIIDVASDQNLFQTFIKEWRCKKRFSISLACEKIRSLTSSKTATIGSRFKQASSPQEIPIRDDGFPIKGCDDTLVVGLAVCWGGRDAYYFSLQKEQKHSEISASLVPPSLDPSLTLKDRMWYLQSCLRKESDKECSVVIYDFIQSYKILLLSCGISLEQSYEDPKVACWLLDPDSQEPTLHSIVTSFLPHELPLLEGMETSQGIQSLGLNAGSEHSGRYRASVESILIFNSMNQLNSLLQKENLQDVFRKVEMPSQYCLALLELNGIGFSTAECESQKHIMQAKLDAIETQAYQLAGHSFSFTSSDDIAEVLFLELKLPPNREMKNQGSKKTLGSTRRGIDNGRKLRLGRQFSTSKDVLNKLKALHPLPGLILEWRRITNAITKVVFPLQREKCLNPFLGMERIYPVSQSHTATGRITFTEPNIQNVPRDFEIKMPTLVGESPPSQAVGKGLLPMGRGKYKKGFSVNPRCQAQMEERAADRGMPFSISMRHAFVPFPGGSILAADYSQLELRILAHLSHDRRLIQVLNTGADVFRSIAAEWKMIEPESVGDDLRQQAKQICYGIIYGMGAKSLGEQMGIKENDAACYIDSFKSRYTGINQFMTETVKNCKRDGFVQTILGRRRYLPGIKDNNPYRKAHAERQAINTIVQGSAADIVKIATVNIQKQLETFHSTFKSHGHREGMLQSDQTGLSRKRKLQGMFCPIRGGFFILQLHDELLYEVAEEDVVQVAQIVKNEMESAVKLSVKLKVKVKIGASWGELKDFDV
Observed: enzyme activity
Mode: inhibitor
Tested at: 77 µM
Measurement: remaining activity
O=c1ccc2c(OCCCCc3ccccc3)c3ccoc3cc2o1: 100%
Clc1ccc(COC(Cn2ccnc2)c2ccc(Cl)cc2Cl)cc1 (stereo not drawn): 102%
Cn1cncc1[C@@](N)(c1ccc(Cl)cc1)c1ccc2c(c1)c(-c1cccc(Cl)c1)cc(=O)n2C: 98.2%
CO[C@H]1[C@@H](OC)C[C@H](C)[C@@H](OC)C2=CC(=O)C=C(NC(=O)/C(C)=C/C=C\[C@H](OC)[C@@H](OC(N)=O)/C(C)=C/[C@@H]1C)C2=O: 113%
CSc1ccc2c(c1)N(CCC1CCCCN1C)c1ccccc1S2 (stereo not drawn): 103%
CN(C)CCN1C(=O)c2cccc3cc(N)cc(c23)C1=O: 93%
CC(C)OC(=O)[C@H](C)N[P@](=O)(OC[C@H]1O[C@@H](n2ccc(=O)[nH]c2=O)[C@](C)(F)[C@@H]1O)Oc1ccccc1: 100%
CC(C)(C)NC(=O)[C@@H]1C[C@@H]2CCCC[C@@H]2CN1C[C@@H](O)[C@H](Cc1ccccc1)NC(=O)[C@H](CC(N)=O)NC(=O)c1ccc2ccccc2n1: 80%
O=C1c2ccccc2-[n+]2ccc3c([nH]c4ccccc43)c21: 106%
O=c1n(CCCN2CCN(c3cccc(Cl)c3)CC2)nc2ccccn12: 101%
